Measured values pooled from the literature.
Parts stem from different laboratories: compare values within a part only. Changes are numbered by the printed parent chain.

Set 1
Target: ABI1, truncated, D143A, DHFR fusion (Arabidopsis thaliana)
Method: DHFR PCA, deep sequencing
Matrix: yeast
Notes: methotrexate growth selection, single substitutions
Together with: (+)-ABA 200 µM
Reference: wild-type fitted maximum
Reading: higher = stronger binding
Starting sequence: PYL1, truncated, DHFR fusion (Arabidopsis thaliana); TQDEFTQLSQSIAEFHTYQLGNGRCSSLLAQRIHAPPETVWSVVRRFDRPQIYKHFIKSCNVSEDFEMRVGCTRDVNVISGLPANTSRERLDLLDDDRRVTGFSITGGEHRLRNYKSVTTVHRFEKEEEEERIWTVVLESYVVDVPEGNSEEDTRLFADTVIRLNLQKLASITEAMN
`S171Y`: “relative binding score” 95.5%.
`M176D`: “relative binding score” 93.1%.
`A175Q` — result for “relative binding score”: 99.9%.
`N165T` — result for “relative binding score”: 1.42%.
For `R98W`, “relative binding score” read 71.5%.
Under “relative binding score”, `I79Y` is recorded as 99.3%.
For `V121A`, “relative binding score” read 39.4%.
For `H55W`, “relative binding score” read 98.1%.

Set 2
Target: Interferon regulatory factor 3, full length, phosphomimetic (IRF3, Homo sapiens, UniProt Q14653, residues 1-427, S386D/S396D/S398D/S402D/T404D/S405D)
UniProt Q14653, sequence (whole entry, unmodified, looked up): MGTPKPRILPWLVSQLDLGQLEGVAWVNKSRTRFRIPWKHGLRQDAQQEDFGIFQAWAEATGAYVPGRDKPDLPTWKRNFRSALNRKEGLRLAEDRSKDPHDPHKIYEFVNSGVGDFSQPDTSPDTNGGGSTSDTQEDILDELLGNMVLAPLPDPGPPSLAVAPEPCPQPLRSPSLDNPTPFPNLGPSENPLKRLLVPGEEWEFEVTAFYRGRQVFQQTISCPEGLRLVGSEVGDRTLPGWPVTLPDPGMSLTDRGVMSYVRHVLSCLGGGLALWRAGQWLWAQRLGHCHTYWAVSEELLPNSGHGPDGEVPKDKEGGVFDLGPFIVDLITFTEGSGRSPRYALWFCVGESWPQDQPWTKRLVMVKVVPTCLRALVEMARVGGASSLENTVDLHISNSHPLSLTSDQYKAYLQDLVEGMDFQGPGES
Method: protein-binding microarray
Molecule type: double-stranded DNA, one strand shown
Matrix: in vitro
Tested at: 2540 nM top
Notes: 60-bp whole probe
Together with: salmon DNA 0.4 mg/ml
Reference: random background probes
Reading: higher = stronger binding
Shared flanks, not repeated: GCCTAGCAC … GTCTTGATTCGCTTGACGCTGCTG
Under “fitted relative affinity”, `TTAGATTCCAGATTCGATTAGTGCTAG` is recorded as 3.45 z-score.
`TTAGAACTGAGTCTCGATTTGTGCTAG` — result for “fitted relative affinity”: -0.189 z-score.
`GACGGTAACGGTCTCGGGACGTGCTAG`: “fitted relative affinity” 0.0775 z-score.
`TGAAATCTCTTTCCTTACTTGTGCTAG`: “fitted relative affinity” 3.12 z-score.
`GCCGGTATCGACTTTCGGGACGTGCTA`: “fitted relative affinity” 1.81 z-score.
Under “fitted relative affinity”, `GATGATTTCAGTCTCGAGACGTGCTAG` is recorded as 1.97 z-score.
For `GACGGTATCGTTCTCGGGACGTGCTAG`, “fitted relative affinity” read 4.43 z-score.
`CCACTCTTGCTTTTTAGATCGTGCTAG` — result for “fitted relative affinity”: 1.52 z-score.

Set 3
Target: Hepatocyte nuclear factor 3-beta, forkhead domain (FOXA2, Homo sapiens, UniProt Q9Y261, residues 142-269)
Method: protein-binding microarray
Molecule type: double-stranded DNA, one strand shown
Matrix: in vitro
Tested at: not given
Notes: k-mer, scored over probes, only values ≥0.25
Reading: higher = stronger binding
Construct (chain): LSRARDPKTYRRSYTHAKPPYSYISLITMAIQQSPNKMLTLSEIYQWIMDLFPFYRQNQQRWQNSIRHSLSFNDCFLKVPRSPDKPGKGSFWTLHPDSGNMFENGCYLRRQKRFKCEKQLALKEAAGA
The E-score of `GTAGACAA` is reported as 0.3.
With `ATAACAGC` the E-score was 0.256.
The E-score of `AATTGATG` is reported as 0.267.
For `GTTATAAA`, the E-score was 0.273.
The E-score of `CTAATATC` is reported as 0.286.
For `CATTTGTA`, the E-score was 0.324.
`AATAACGG` gave an E-score of 0.255.
`ACAATAAC` has an E-score of 0.272.

Single results of other studies
With `CN(CCOc1ccc(C2=NN(c3ccccc3)C(=O)C2)cc1)c1nc2ccccc2o1` the remaining compound was 28.5% (human, microsomes or S9; 2 µM, 0.5 h).

Repeated from above (single results of other studies):
With `CN(CCOc1ccc(C2=NN(c3ccccc3)C(=O)C2)cc1)c1nc2ccccc2o1` the remaining compound was 28.5% (human, microsomes or S9; 2 µM, 0.5 h).
